Measurements pooled from the literature.
Every numbered part comes from another study and shows a few of its results, in no order.

Series 1
Target: RING finger protein unkempt homolog, zinc fingers 1-6, GST-SBP tag (UNK, Homo sapiens, UniProt Q9C0B0, residues 30-357)
Technique: RNA Bind-n-Seq
Form: RNA
Medium: in vitro
Tested at: not given
Setting: RNA with constant flanks, human and mouse sites, ends assumed
Relative to: input RNA pool
Direction: higher = stronger binding
All sequences stand within: GGGAGUUCUACAGUCCGACGAUC … CAACAGAGGAUUGAGCAUCA
Target sequence (chain): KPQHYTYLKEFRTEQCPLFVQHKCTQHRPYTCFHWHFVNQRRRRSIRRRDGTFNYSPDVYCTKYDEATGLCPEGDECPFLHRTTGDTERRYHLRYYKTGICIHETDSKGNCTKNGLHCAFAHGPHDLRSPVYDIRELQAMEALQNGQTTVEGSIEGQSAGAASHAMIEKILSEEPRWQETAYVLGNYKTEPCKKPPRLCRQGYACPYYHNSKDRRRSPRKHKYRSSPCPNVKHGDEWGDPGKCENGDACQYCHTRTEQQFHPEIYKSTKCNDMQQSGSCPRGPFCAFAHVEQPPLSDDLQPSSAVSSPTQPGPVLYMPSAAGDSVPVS
Oligonucleotide	bound/input enrichment [ratio]
GACCUUUAUGCCAAUGUCCGGCCAUGUGUCUCAAUUGAAGGUUAUAAAACCCCUUACACGGAUGUAAAUAUCGUCACCAUCCGAGAGAACACGGAAGGAGAAUACAGUGGAAUUGAGCAU	0.201
GAGCUCAUUUGCAAGAUGGCUGCCUGCCCUGAGAAACUGGACCUGAACCUGGCAGCAGCUGUACAUAAGGAGAUGUUCAUUAUGGUGCAAGAGGAGCGGCGUCUACGAAAGGCUCUGUUG	0.121
CUAAGUGUCCUCCGUUUGCUCCUUGUGACCAUGGGACUCCUCUUUGUUUUGCUCCUCCUCCUGAUCAUCCUUACCGAGUCUGACCUUGACAUUGCCUUUUUCCGUGAUAUCCGCCAGACC	0.162
AGUUACCGGCUACCCAAGGACUUUGUAGACCUCUCUACUGGGGAGGACGCUCACAAGCUAAUAGACUUCCUUAAGCUGAAGAGAAAUCAGCAGGAGGACGACUGAUGAGCGUACUGGAAC	0.101
CAUAUCAGUGACGUGGUGCUGGACAAGGCCAAUAAAACACCACUGCGGCCACUGGAUCCCACUAGACUACAAGGCAUAAAUUGUGGCCCAGACUUCACUCCAUCCUUUGCCAACCUUGGC	0.112
CCCUCCCCGCUCCCCGCGUCCGCCGCGUCCGCCCCGGCACCUCUCCACCCGCCGCUCGCCGCGCUCCGGGCUGCCCUCGUCCGUGCGCGCCGUGGCCGGCCGAGCGGGCGGCGCGUUGAU	1.32
AAGGCUGGUUCAUUGUUUCUCAUCUAUGAGUACGUGUGACCUUUUCCCAAACCUUAUUGGAAACCUUAAGUAACCAGUGGCUAAACAGAAAAGCCGGUUGCCCAACUGCAUUAAUGAACU	0.351
AAGCUUCUUUGAGACUCAGUCAAGGUCAUCAUUUUGACACGCUUGGUCUCCAUUUUGACAUCCACGCAUAAAGAAGUGUGGUCCCCACCAAACAGGACCAAAGUUCCUGAAUGUAUGGGA	0.109
AUUGCUAAUGUCCAGAGCGGGGCCAAUUCGUUGCCUUGCUCAGAAUUGCCCUGUGACCUUUCUUUCAAGAAUACAUAUCCUAAAGAUGAAGCACAUGUCUCAGAUGAAUUCUCCAAAAGU	0.0921
UCUGUCAGUGAGGCUCAGGAGAAGAGAAACUCACGCCUGAGAGACUACAGAAGUCUGAUCGAGAAAGAUGUCAACAGAACAGAUCGAACGAACAAGUUUUAUGAAGGCCAAGAUAACCCA	0.125
CUGAAGUCUCUGCGGGAACUCAAUGUCCGAAGAAAUUACCUUAAGGUUUUACCACCAGAGCUAGUAGAUCUCCCCUUGGUAAAGUUUGACUUUUCCUGCAACAAGGUGCUGGUGAUCCCC	0.336

Series 2
Target: Histone acetyltransferase KAT6A, winged helix 1, GST fusion (KAT6A, Homo sapiens, UniProt Q92794, residues 1-85)
Technique: protein binding microarray
Form: double-stranded DNA, one strand shown
Medium: in vitro
Tested at: not given
Setting: 8-mer, flanks averaged, mean of 2 arrays, mostly near background
Relative to: not given
Direction: higher = stronger binding
Residues (chain): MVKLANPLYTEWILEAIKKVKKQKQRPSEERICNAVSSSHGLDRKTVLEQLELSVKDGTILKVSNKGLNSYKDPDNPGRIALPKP
Oligonucleotide	E-score
ACCGTGGC	0.0425
TGGTTTAA	-0.0955
AATGTGAC	-0.11
AGTCTCTG	-0.136
ACTGGGAG	-0.0611
AGTATGTC	-0.0759
AGCCGGAA	0.149
TATGATAA	-0.158
CGACTCGC	0.0708
ACGCCTGC	-0.102
CGTGGGTC	-0.153
AGCTGCCA	-0.181
ACATGAGT	0.0516
CTCACGGA	0.192
GAGGAAGA	-0.216
CGATAAAA	0.00817
GTCACTGA	-0.0876
AAGTTCTC	-0.231
CCATTACC	0.00238
GGGTTCTA	-0.0745
GTCCAATA	0.0799
AGGAGAGG	-0.163
ATGCGCGC	0.446
ATGGCCAG	-0.0935
CATTGACG	-0.0026

Series 3
Target: Ras GTPase-activating protein-binding protein 1, full length (G3BP1, Homo sapiens, UniProt Q13283)
Sequence of UniProt Q13283 (whole entry, looked up): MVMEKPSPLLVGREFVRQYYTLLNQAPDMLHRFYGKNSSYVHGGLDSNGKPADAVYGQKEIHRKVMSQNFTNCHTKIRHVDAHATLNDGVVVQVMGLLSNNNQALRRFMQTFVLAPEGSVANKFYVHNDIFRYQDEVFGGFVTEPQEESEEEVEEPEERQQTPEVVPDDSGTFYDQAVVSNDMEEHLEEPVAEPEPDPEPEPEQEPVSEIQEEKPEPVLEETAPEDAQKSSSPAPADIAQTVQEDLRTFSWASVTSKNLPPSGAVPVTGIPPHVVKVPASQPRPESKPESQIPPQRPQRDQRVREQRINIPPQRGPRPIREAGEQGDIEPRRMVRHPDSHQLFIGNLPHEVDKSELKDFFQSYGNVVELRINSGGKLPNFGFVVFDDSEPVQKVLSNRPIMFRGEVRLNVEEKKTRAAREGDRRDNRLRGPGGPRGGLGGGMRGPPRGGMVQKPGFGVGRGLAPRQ
Technique: RNA Bind-n-Seq
Form: RNA
Medium: in vitro
Tested at: 200 nM
Setting: whole 134-nt RNA, ends assumed
With: 150 mM KCl
Relative to: input library
Direction: higher = stronger binding
All sequences stand within: GGGAGUUCUACAGUCCGACGAUC … UGGAAUUCUCGGGUGUCAAGG
Oligonucleotide	log2 enrichment
ACCAUGCAGGUGGGCAUCUUUGGGAAGUGGGGCAAGGGGGGGAUAGGGAGGGGGGUAACACAUUGGGAACAGGUGGUCCCAGGUCGUUUC	1.11
CCUCAAGUCCUGUGCUACACAUCGUAUGUACCGAAUCGGGGCGGCGGGCGGGAAAGUAUUAUGUUACGCCGUUCGGAUCUGCACUUCCAG	0.866
UCCUCAAGUCCUGUGCUACACAUCGUAUGUACCGAAUCGGCGGGCGGGCGGGAAAGUAUUAUGUUACGCCGUUCGGAUCUGCACUUCCAG	1.18
UAACUUUAGAGGAGGAUCUGAUGGAUAUGGCAGUGGACGUGGAUUUGGGGAUGGCUAUAAUGGGUAUGGAGGAGGACCUGGAGGUGGAAA	0.274
CCUGUGCUACACAUCGUAUGUACCGAAUCGGGGUUUUUUGGGGUUUUUUGGGUUUUUUGGAAAGUAUUAUGUUACGCCGUUCGGAUCUGC	-0.392
UUCCAUUGUGAACGUGCCUGGUGAGUCUACUCUUCGCCGAGAUUUCCUGAGACUGCAGCAGGAGAACAAGGAACGUUCCGAGGCUCUUCG	-1.88
GUCCUGUGCUACACAUCGUAUGUACCGAAUCGGGGUUUUGGGGUUUUGGGGUUUUGGGAAAGUAUUAUGUUACGCCGUUCGGAUCUGCAC	-0.0631
UCCUGUGCUACACAUCGUAUGUACCGAAUCGGGAAAAAGGGUUUUUGGGAAAAAAAGGGAAAGUAUUAUGUUACGCCGUUCGGAUCUGCA	-0.546
GCAGGAAGUAAAAACAAAUGGAAAUGCUUCGGAUCGUGGCAGGGGUGGGGGUUGCUAAGGAAAGGGUGGGAUGGGAGUGGGUAAAGAGUU	1.25
UCCUGUGCUACACAUCGUAUGUACCGAAUCGGGCCCCCGGGGCCCCCGGGCCCCCGGGGAAAGUAUUAUGUUACGCCGUUCGGAUCUGCA	-0.768
CUCAAGUCCUGUGCUACACAUCGUAUGUACCGAAUCGGGAGGGAGGGGAGGGGAAAGUAUUAUGUUACGCCGUUCGGAUCUGCACUUCCA	1.48
ACCAUGCAGGUGGGCAUCUUUGGGAAGUGGGGCAAGGGGGGAAUAGGGAGGGGGGUAACACUUUGGGAACAGGUGGUCCCAGGUCGUUUC	1.02
CACAGACAACACGCACCCACACAGACACAGAGGGAAGGGGUUGGGAUGGGGACAGAGUGCACAGCAGGGCGGGGUAGGACCCCAGCCCCU	1.73
GCAGGAAGUAAAAACAAAUGGAAAUGCUUCGGAUAGUGGCAGGGGUGGGGGUUGCUAAGGAAAGGGUGGGAUGGGAGUGGGUAAAGAAAA	1.05

Series 4
Target: RNA binding protein fox-1 homolog 2, RRM domain, GST-SBP tag (RBFOX2, Homo sapiens, UniProt O43251-10, residues 100-194)
Technique: RNA Bind-n-Seq
Form: RNA
Medium: in vitro
Tested at: 365 nM
Setting: natural RNA segment, single round, ends assumed
Relative to: no-protein control
Direction: higher = stronger binding
All sequences stand within: GGGAGUUCUACAGUCCGACGAUC … UGGAAUUCUCGGGUGCCAA
Target sequence (chain): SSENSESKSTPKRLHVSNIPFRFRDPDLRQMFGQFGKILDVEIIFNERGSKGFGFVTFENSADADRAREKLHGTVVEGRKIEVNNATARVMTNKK
Oligonucleotide	RBNS enrichment (R)
AUUUGGGUCCUCUCGGCCCCAACUGACCAGAGGCCAACUGUGUUCACAUUUAUUUUUCUUAAAGUACUUUUGUUCCAAAGGGGCCUUGUGGCGCCAGAGAGCUAGGAACU	0.232
ACACCAACAUGUUGGGAAACUUGGCUCGAAUCUCUGUGCCUUCGUCUUUCCCAUGGGGAGGGAUUCUGGUUCCAGGGUCCCUCUGUGUAUUUGCUUUUUUGUUUUGGCUG	0.299
AUGUGUAAGAGUCUUUCUGUAUGACGAACUACAUGGAAAAGACUUCUGUGGACAUAAUUCUGACCGAAACCCAUGAAGUUACUUCAGUAUAAGAAGAACGUUACACGGAA	0.286
UCUCACUGCUUUUUGUCUGAAACACAGAGUUGAUUUCCGAGAAUGAUUGGGAAGAAAAGAAAUGGAUUUUUAUACACAUACACCAAAAAUAUUUUAAUGAUUCACUUGCC	1.1
GCUUGUGAUUUUUGUACAUUGAUUUUGUAUCCUGAGACUUUGCUGAAGUUGCUUAUCAGCUUAAGGAGAUUUUGGGCUGAGACGAUGGGGUUUUCUAGAUAUACAAUCAU	0.582
UCUUUAUGACAGGGAUCAGUGGCAUUUGUUUCCUAGCAGUAUUUAGCACCUUUUUGCCACCUUGGUGAACAGAAAAUUGUAUUUUCCUGUCUUUCAUGGCUGAAAACAAA	0.284
UGGAAGCAUACCCCAAGACCCCAAGCCUUGACUCCAGCUGCGCCCACAGGAAGUCCAGUCCCGACAGUGCCCUUGUUGCCUUUGAGCCAGAUCCAUGGCAAUGGUCUCCC	0.636
CAGUGAGUGUAGAGUGAAAGUCCUCCAUGUAGUAUUUUCCUGCCCCAGACCAGUCUUAUAGUAAAUAAGCAGAGUUCUGUGUCAGCUCAUGGCUGAUCUCUCCUCAAAGA	0.377
CAUAGCUCUUAAACCGUGUGGGUGAAUGGUGUCUAAUUGCACCCCUUUGUGUUCUCACUUGCAUAAAGCUAUUCAAGGUACUUUUUAAAAGGCAAGGGUUGAUCCCCGCA	0.84
UCCGGGUGGGGUACCUACACUGAUGCUGCUAGAGGAACAGGUAAAGAUCCCAGAGGGAUAGAGGAGACAGUGAUCUGGGCUCUGUUUAGGAAUGGACUUUCCCCUAGGUA	2.43
UUGGGUCAAUAUUGACUGAUCAGUAGUAGGUCUUUUACCAUUCUGGACAUAAGUCUAGGUGUAGAAAUCCUUUCCUUUAUCAUAGAGGAUAUGGUUUACAUUACCGUUUG	0.357
GUAGACUUGCUGCUGCUGAAUCCUUUCUGGGGACUUUCUCAUCGGGCAGGGAGCAGAGGGCUUCUCGUUCAUGCACCCUUUGCCUGAACACCCAUGUAGCUGCUGUGUUG	0.284

Repeated from above (series 1):
Oligonucleotide	bound/input enrichment [ratio]
AGUUACCGGCUACCCAAGGACUUUGUAGACCUCUCUACUGGGGAGGACGCUCACAAGCUAAUAGACUUCCUUAAGCUGAAGAGAAAUCAGCAGGAGGACGACUGAUGAGCGUACUGGAAC	0.101
CAUAUCAGUGACGUGGUGCUGGACAAGGCCAAUAAAACACCACUGCGGCCACUGGAUCCCACUAGACUACAAGGCAUAAAUUGUGGCCCAGACUUCACUCCAUCCUUUGCCAACCUUGGC	0.112
CCCUCCCCGCUCCCCGCGUCCGCCGCGUCCGCCCCGGCACCUCUCCACCCGCCGCUCGCCGCGCUCCGGGCUGCCCUCGUCCGUGCGCGCCGUGGCCGGCCGAGCGGGCGGCGCGUUGAU	1.32
AAGGCUGGUUCAUUGUUUCUCAUCUAUGAGUACGUGUGACCUUUUCCCAAACCUUAUUGGAAACCUUAAGUAACCAGUGGCUAAACAGAAAAGCCGGUUGCCCAACUGCAUUAAUGAACU	0.351
AAGCUUCUUUGAGACUCAGUCAAGGUCAUCAUUUUGACACGCUUGGUCUCCAUUUUGACAUCCACGCAUAAAGAAGUGUGGUCCCCACCAAACAGGACCAAAGUUCCUGAAUGUAUGGGA	0.109
AUUGCUAAUGUCCAGAGCGGGGCCAAUUCGUUGCCUUGCUCAGAAUUGCCCUGUGACCUUUCUUUCAAGAAUACAUAUCCUAAAGAUGAAGCACAUGUCUCAGAUGAAUUCUCCAAAAGU	0.0921
